{"data": "Measured values from different studies", "note": "Numbered parts are unrelated; each lists some results of a single study. Several values in a cell are separate wells, animals, samples, runs or records.", "UniProt Q9UL54, sequence (whole entry, looked up)": "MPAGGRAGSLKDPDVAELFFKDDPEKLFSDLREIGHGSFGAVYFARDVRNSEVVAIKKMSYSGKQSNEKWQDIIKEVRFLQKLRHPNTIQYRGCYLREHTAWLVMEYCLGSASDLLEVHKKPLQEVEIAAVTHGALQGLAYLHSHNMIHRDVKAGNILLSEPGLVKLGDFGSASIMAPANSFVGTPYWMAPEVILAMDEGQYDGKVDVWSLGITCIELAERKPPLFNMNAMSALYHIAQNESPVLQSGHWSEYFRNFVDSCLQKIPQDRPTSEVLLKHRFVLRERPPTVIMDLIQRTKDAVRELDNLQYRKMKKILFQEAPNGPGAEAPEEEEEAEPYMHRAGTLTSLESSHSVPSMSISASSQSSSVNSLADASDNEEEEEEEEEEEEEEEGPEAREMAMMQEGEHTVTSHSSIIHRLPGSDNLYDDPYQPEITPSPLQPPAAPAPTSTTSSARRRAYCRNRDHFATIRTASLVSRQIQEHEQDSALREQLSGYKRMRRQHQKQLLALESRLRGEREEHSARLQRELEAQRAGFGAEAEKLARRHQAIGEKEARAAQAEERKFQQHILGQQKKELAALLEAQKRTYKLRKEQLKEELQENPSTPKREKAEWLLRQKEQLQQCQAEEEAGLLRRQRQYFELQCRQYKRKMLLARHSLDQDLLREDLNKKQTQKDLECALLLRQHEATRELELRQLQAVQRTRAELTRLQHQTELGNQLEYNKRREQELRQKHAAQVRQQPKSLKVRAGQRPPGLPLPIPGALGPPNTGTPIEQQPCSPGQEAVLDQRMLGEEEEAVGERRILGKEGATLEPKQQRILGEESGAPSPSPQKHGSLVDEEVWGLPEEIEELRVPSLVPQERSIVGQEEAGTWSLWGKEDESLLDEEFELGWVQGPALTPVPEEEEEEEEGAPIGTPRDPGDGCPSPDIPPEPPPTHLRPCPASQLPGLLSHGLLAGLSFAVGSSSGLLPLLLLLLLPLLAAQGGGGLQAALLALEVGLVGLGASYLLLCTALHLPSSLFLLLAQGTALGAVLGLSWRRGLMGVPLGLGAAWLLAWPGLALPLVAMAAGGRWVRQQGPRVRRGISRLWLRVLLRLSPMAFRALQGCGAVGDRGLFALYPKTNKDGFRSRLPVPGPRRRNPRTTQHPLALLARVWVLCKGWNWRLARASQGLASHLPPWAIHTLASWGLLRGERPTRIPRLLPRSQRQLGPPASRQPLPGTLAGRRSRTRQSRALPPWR", "UniProt P11802, sequence (whole entry, looked up)": "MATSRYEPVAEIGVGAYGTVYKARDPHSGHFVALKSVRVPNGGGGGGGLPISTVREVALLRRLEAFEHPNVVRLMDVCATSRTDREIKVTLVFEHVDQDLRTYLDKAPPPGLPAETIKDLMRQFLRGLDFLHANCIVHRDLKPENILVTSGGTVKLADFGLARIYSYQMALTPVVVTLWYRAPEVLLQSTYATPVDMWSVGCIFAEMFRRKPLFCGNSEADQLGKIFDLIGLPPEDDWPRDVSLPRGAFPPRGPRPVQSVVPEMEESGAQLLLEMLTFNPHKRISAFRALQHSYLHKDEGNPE", "UniProt P80192, sequence (whole entry, looked up)": "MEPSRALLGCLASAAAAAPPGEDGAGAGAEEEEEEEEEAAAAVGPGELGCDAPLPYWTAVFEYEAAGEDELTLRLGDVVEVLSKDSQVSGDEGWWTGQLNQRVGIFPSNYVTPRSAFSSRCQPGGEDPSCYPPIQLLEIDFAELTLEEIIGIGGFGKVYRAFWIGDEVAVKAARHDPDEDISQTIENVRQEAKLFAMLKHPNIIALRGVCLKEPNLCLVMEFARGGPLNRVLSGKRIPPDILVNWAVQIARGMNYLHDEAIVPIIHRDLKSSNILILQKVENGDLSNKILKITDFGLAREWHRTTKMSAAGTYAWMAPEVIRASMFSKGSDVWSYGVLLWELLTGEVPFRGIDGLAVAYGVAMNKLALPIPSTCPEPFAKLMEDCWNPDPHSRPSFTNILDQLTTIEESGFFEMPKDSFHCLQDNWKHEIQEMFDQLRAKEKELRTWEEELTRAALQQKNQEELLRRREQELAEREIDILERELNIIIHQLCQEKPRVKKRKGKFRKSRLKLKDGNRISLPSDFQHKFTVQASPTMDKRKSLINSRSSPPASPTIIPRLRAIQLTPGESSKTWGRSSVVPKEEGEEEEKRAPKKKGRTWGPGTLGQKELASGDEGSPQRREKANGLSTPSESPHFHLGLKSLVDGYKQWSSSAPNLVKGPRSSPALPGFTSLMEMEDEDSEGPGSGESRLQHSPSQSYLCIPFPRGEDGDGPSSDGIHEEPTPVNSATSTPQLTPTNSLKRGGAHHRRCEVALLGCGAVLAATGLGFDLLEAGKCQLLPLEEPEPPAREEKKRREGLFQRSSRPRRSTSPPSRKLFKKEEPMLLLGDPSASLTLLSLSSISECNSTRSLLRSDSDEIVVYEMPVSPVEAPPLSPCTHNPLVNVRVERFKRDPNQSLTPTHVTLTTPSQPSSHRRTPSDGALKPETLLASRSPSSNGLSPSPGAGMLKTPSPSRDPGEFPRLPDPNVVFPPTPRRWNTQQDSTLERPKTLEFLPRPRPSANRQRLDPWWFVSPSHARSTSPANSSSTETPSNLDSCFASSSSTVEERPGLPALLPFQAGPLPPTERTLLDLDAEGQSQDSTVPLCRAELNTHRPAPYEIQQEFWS", "UniProt P78368, sequence (whole entry, looked up)": "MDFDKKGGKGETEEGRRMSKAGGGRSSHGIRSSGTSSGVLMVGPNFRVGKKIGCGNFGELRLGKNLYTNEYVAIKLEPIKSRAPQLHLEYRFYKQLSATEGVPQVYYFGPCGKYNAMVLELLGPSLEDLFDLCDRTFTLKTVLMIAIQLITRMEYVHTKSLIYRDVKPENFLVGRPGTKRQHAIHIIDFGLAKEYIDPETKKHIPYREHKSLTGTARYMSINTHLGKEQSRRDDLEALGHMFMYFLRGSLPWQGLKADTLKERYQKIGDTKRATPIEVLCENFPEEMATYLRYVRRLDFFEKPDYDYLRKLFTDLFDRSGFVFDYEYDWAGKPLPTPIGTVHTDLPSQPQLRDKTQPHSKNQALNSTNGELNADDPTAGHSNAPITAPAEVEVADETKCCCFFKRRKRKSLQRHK", "UniProt Q15418, sequence (whole entry, looked up)": "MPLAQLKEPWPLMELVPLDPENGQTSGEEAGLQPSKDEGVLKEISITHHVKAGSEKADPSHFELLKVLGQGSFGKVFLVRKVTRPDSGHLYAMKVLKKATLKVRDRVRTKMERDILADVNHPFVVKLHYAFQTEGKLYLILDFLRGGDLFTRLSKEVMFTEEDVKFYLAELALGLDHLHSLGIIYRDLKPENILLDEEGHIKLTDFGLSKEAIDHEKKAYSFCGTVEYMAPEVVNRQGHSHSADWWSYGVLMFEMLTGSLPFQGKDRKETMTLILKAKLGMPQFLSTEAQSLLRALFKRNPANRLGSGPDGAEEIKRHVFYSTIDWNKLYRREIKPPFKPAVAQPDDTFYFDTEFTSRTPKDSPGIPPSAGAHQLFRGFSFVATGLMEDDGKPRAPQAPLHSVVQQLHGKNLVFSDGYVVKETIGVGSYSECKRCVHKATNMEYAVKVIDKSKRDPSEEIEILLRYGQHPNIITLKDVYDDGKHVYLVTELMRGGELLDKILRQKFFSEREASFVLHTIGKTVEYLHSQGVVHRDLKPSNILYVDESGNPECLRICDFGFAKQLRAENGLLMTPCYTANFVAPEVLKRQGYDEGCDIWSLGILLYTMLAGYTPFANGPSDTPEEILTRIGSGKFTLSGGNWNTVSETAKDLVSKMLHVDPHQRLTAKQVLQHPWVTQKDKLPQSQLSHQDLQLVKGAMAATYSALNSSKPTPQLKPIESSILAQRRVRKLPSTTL", "UniProt P52333, sequence (whole entry, looked up)": "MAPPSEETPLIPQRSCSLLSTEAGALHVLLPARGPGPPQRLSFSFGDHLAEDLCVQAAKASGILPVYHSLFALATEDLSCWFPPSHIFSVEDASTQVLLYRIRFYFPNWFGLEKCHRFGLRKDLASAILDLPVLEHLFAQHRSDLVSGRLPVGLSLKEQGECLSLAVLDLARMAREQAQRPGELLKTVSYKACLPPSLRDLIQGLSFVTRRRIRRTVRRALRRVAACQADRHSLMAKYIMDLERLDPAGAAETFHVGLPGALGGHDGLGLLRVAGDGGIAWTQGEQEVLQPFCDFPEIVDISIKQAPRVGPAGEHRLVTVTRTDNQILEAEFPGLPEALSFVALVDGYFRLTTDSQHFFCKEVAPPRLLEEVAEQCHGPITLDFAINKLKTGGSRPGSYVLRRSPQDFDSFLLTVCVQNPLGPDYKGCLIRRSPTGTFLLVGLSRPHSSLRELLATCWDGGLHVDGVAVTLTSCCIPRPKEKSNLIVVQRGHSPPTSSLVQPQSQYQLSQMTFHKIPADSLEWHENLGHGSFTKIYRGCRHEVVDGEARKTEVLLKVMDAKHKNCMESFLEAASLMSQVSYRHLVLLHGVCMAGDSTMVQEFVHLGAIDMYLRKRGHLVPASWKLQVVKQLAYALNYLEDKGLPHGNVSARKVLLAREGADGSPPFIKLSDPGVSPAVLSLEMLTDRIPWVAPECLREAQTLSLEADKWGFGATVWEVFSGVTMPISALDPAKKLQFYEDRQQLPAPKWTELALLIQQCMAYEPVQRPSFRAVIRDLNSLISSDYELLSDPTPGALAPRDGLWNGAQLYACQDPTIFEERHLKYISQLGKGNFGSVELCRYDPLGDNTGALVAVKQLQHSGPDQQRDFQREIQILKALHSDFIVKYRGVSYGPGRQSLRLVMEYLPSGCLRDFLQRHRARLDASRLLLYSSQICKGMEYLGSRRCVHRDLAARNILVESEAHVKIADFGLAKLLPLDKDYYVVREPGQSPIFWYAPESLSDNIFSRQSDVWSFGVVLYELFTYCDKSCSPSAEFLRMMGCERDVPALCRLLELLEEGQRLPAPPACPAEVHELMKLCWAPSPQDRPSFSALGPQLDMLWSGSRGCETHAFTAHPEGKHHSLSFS"}
{"data": "Block 1", "cell line": "HaCaT", "concentration": "100 µM", "time": "18 h"}
{"Structure (SMILES)": "CC(C)OC(=O)CCC/C=C\\C[C@@H]1[C@@H](CC[C@@H](O)CCc2ccccc2)[C@H](O)C[C@@H]1O", "viability [%]": 15.7}
{"Structure (SMILES)": "O=C(O)c1ccccc1Nc1cccc(C(F)(F)F)c1", "viability [%]": 93.7}
{"Structure (SMILES)": "C#C[C@]1(O)CC[C@H]2[C@@H]3CCC4=C(CCC(=O)C4)[C@H]3CC[C@@]21C", "viability [%]": 100}
{"Structure (SMILES)": "CC(=O)O[C@]1(C(C)=O)CC[C@H]2[C@@H]3CCC4=CC(=O)CCC4=C3[C@@H](c3ccc(N(C)C)cc3)C[C@@]21C", "viability [%]": 92.6}
{"Structure (SMILES)": "C[C@]12CCC(=O)C=C1C=C[C@@H]1[C@@H]2CC[C@@]2(C)[C@H]1CC[C@@]21CCC(=O)O1", "viability [%]": 97.8}
{"data": "Block 2", "cell line": "mouse MPNST tumor cells", "method": "high-content immunofluorescence imaging", "refers to": "nuclear SOX9", "concentration": "10 µM", "time": "12 h", "setting": "mean of 2 replicates", "relative to": "DMSO control", "direction": "higher = more nuclear SOX9"}
{"Compound": "Nc1ccc(/N=N/c2ccccc2)c(N)n1", "nuclear SOX9 intensity": "101 % of DMSO"}
{"Compound": "CCCSc1ccc2[nH]c(NC(=O)OC)nc2c1", "nuclear SOX9 intensity": "156 % of DMSO and 194 % of DMSO"}
{"Compound": "C[C@](Cc1c[nH]c2ccccc12)(NC(=O)OC1[C@H]2C[C@@H]3C[C@@H](C[C@H]1C3)C2)C(=O)NC[C@H](NC(=O)CCC(=O)O)c1ccccc1 (some centres unmarked)", "nuclear SOX9 intensity": "94.8 % of DMSO"}
{"Compound": "CS(=O)(=O)Nc1ccc(-c2coc3cc(OCc4cccc(C(=O)O)c4)ccc3c2=O)cc1", "nuclear SOX9 intensity": "90.5 % of DMSO"}
{"Compound": "NC(=O)N1c2ccccc2CC(O)c2ccccc21 (centres unmarked)", "nuclear SOX9 intensity": "96 % of DMSO"}
{"data": "Block 3", "SMILES": "CN(C(=O)c1ccccc1)c1cc(N(C)c2ccc3c(c2)CCc2ccc(C(=O)NCCN4CCOCC4)cc2C3=O)ccc1F", "method": "competition with immobilised ligand", "concentration": "1 µM"}
{"target": "Tyrosine-protein kinase JAK1, JH1 (JAK1, Homo sapiens, UniProt P23458)", "assay": "cell-free assay", "remaining binding [%]": 100}
{"target": "Mitogen-activated protein kinase 12 (MAPK12, Homo sapiens, UniProt P53778)", "assay": "cell-free assay", "remaining binding [%]": 100}
{"target": "Ribosomal protein S6 kinase alpha-1, C-terminal kinase domain (RPS6KA1, Homo sapiens, UniProt Q15418)", "assay": "cell-free assay", "remaining binding [%]": 100}
{"target": "Tyrosine-protein kinase CSK (CSK, Homo sapiens, UniProt P41240)", "assay": "cell-free assay", "remaining binding [%]": 88}
{"target": "Tyrosine-protein kinase Lck (LCK, Homo sapiens, UniProt P06239)", "assay": "cell-free assay", "remaining binding [%]": 100}
{"target": "Ephrin type-A receptor 6 (EPHA6, Homo sapiens, UniProt Q9UF33)", "assay": "cell-free assay", "remaining binding [%]": 94}
{"target": "Serine/threonine-protein kinase TAO2 (TAOK2, Homo sapiens, UniProt Q9UL54)", "assay": "cell-free assay", "remaining binding [%]": 83}
{"target": "G protein-coupled receptor kinase 3 (GRK3, Homo sapiens, UniProt P35626)", "assay": "cell-free assay", "remaining binding [%]": 100}
{"target": "Tyrosine-protein kinase ABL1, phosphorylated (ABL1, Homo sapiens, UniProt P00519, E255K)", "assay": "binding", "remaining binding [%]": 92}
{"target": "Mitogen-activated protein kinase kinase kinase 9 (MAP3K9, Homo sapiens, UniProt P80192)", "assay": "cell-free assay", "remaining binding [%]": 92}
{"target": "Cyclin-dependent kinase 4, with cyclin D1 (CDK4, Homo sapiens, UniProt P11802)", "assay": "cell-free assay", "remaining binding [%]": 100}
{"target": "Myosin-IIIb (MYO3B, Homo sapiens, UniProt Q8WXR4)", "assay": "cell-free assay", "remaining binding [%]": 87}
{"target": "Serine/threonine-protein kinase PAK 3 (PAK3, Homo sapiens, UniProt O75914)", "assay": "cell-free assay", "remaining binding [%]": 100}
{"target": "Serine/threonine-protein kinase TBK1 (TBK1, Homo sapiens, UniProt Q9UHD2)", "assay": "cell-free assay", "remaining binding [%]": 84}
{"target": "Proto-oncogene tyrosine-protein kinase ROS (ROS1, Homo sapiens, UniProt P08922)", "assay": "cell-free assay", "remaining binding [%]": 81}
{"target": "Phosphatidylinositol 4,5-bisphosphate 3-kinase catalytic subunit gamma isoform (PIK3CG, Homo sapiens, UniProt P48736)", "assay": "cell-free assay", "remaining binding [%]": 77}
{"target": "Tyrosine-protein kinase ITK/TSK (ITK, Homo sapiens, UniProt Q08881)", "assay": "cell-free assay", "remaining binding [%]": 100}
{"target": "Peripheral plasma membrane protein CASK (CASK, Homo sapiens, UniProt O14936)", "assay": "cell-free assay", "remaining binding [%]": 85}
{"target": "3-phosphoinositide-dependent protein kinase 1 (PDPK1, Homo sapiens, UniProt O15530)", "assay": "cell-free assay", "remaining binding [%]": 100}
{"target": "Receptor tyrosine-protein kinase erbB-2 (ERBB2, Homo sapiens, UniProt P04626)", "assay": "cell-free assay", "remaining binding [%]": 100}
{"target": "5'-AMP-activated protein kinase catalytic subunit alpha-2 (PRKAA2, Homo sapiens, UniProt P54646)", "assay": "cell-free assay", "remaining binding [%]": 100}
{"target": "Tyrosine-protein kinase ABL1, non-phosphorylated (ABL1, Homo sapiens, UniProt P00519, Q252H)", "assay": "cell-free assay", "remaining binding [%]": 85}
{"target": "Proto-oncogene tyrosine-protein kinase receptor Ret (RET, Homo sapiens, UniProt P07949, V804L)", "assay": "cell-free assay", "remaining binding [%]": 100}
{"data": "Block 4", "SMILES": "C[S+]([O-])c1ccc(-c2nc(-c3ccncc3)c(-c3ccc(F)cc3)[nH]2)cc1 (centres unmarked)", "observed": "enzyme activity", "mode": "inhibitor", "concentration": "0.5 µM", "relative to": "control"}
{"target": "Wee1-like protein kinase (WEE1, Homo sapiens, UniProt P30291)", "remaining activity": "92.1%"}
{"target": "Ephrin type-A receptor 3 (EPHA3, Homo sapiens, UniProt P29320)", "remaining activity": "96.1%"}
{"target": "Mitogen-activated protein kinase 3 (MAPK3, Homo sapiens, UniProt P27361)", "remaining activity": "101%"}
{"target": "Glycogen synthase kinase-3 beta (GSK3B, Homo sapiens, UniProt P49841)", "remaining activity": "80.2%"}
{"target": "Casein kinase I isoform gamma-3 (CSNK1G3, Homo sapiens, UniProt Q9Y6M4)", "remaining activity": "103%"}
{"target": "Activin receptor type-1B (ACVR1B, Homo sapiens, UniProt P36896)", "remaining activity": "127%"}
{"target": "Tyrosine-protein kinase ABL2 (ABL2, Homo sapiens, UniProt P42684)", "remaining activity": "91.5%"}
{"target": "Serine/threonine-protein kinase TAO2 (TAOK2, Homo sapiens, UniProt Q9UL54)", "remaining activity": "94%"}
{"target": "Tyrosine-protein kinase Mer (MERTK, Homo sapiens, UniProt Q12866)", "remaining activity": "93.9%"}
{"target": "Serine/threonine-protein kinase ULK3 (ULK3, Homo sapiens, UniProt Q6PHR2)", "remaining activity": "83.2%"}
{"target": "Mitogen-activated protein kinase kinase kinase 14 (MAP3K14, Homo sapiens, UniProt Q99558)", "remaining activity": "118%"}
{"target": "Fibroblast growth factor receptor 3 (FGFR3, Homo sapiens, UniProt P22607)", "remaining activity": "97%"}
{"target": "Dual specificity mitogen-activated protein kinase kinase 2 (MAP2K2, Homo sapiens, UniProt P36507)", "remaining activity": "99.9%"}
{"target": "Casein kinase I isoform gamma-2 (CSNK1G2, Homo sapiens, UniProt P78368)", "remaining activity": "95.7%"}
{"target": "Tyrosine-protein kinase JAK3 (JAK3, Homo sapiens, UniProt P52333)", "remaining activity": "93.9%"}
{"target": "MAP kinase-activated protein kinase 2 (MAPKAPK2, Homo sapiens, UniProt P49137)", "remaining activity": "98.3%"}
{"target": "Serine/threonine-protein kinase A-Raf (ARAF, Homo sapiens, UniProt P10398)", "remaining activity": "42.7%"}
{"target": "Ribosomal protein S6 kinase alpha-2 (RPS6KA2, Homo sapiens, UniProt Q15349)", "remaining activity": "102%"}
{"target": "Macrophage-stimulating protein receptor (MST1R, Homo sapiens, UniProt Q04912)", "remaining activity": "101%"}
{"target": "Rhodopsin kinase GRK7 (GRK7, Homo sapiens, UniProt Q8WTQ7)", "remaining activity": "107%"}
{"target": "Serine/threonine-protein kinase Nek6 (NEK6, Homo sapiens, UniProt Q9HC98)", "remaining activity": "103%"}
{"target": "Tyrosine-protein kinase FRK (FRK, Homo sapiens, UniProt P42685)", "remaining activity": "87.2%"}
{"target": "Angiopoietin-1 receptor (TEK, Homo sapiens, UniProt Q02763)", "remaining activity": "94.5%"}
{"note": "Excerpt of the above (block 3):"}
{"target": "Mitogen-activated protein kinase 12 (MAPK12, Homo sapiens, UniProt P53778)", "assay": "cell-free assay", "remaining binding [%]": 100}
{"target": "Ribosomal protein S6 kinase alpha-1, C-terminal kinase domain (RPS6KA1, Homo sapiens, UniProt Q15418)", "assay": "cell-free assay", "remaining binding [%]": 100}
{"target": "Tyrosine-protein kinase CSK (CSK, Homo sapiens, UniProt P41240)", "assay": "cell-free assay", "remaining binding [%]": 88}
{"target": "Tyrosine-protein kinase Lck (LCK, Homo sapiens, UniProt P06239)", "assay": "cell-free assay", "remaining binding [%]": 100}
{"target": "Ephrin type-A receptor 6 (EPHA6, Homo sapiens, UniProt Q9UF33)", "assay": "cell-free assay", "remaining binding [%]": 94}
{"target": "Serine/threonine-protein kinase TAO2 (TAOK2, Homo sapiens, UniProt Q9UL54)", "assay": "cell-free assay", "remaining binding [%]": 83}
{"target": "G protein-coupled receptor kinase 3 (GRK3, Homo sapiens, UniProt P35626)", "assay": "cell-free assay", "remaining binding [%]": 100}
